Results collected from several papers.
A part holds a random share of what one study measured.

Set 1
Organism: SARS-CoV-2
Effect on: cytopathic effect
Cells: Vero E6
Tested at: 10 µM
| SMILES | inhibition [%] |
| --- | --- |
| O=C(O)c1ccccc1-c1c2cc(Br)c(=O)cc-2oc2[c]([Hg][OH])c(O)c(Br)cc12 | -49.3 |
| CC(=O)[O][Hg][c]1ccccc1 | -44 |
| CCN1CCN(C(c2ccc(C(F)(F)F)cc2)c2ccc3cccnc3c2O)CC1 (stereo not drawn) | -10.5 |
| CNc1nc(Nc2cn(C(C)(C)C#N)nc2C)ncc1C(F)(F)F | -1.3 |
| CC(Cc1ccc(O)c(O)c1)C(C)Cc1ccc(O)c(O)c1 (stereo not drawn) | -9 |

Set 2
Cell line: HEK-293T
Effect on: pseudovirus infection
Technique: FDA-approved drug library screen
Organism: VSV pseudotyped with SARS-CoV-2 spike
Tested at: 10 µM
Time: 16 h
Relative to: vehicle-treated
| Structure (SMILES) | GFP-positive cells [%] |
| --- | --- |
| Nc1nc(Cl)nc2c1ncn2[C@H]1C[C@H](O)[C@@H](CO)O1 | 75.8 |
| NCC1(CC(=O)O)CCCCC1 | 87.3 |
| C=C[C@H]1CN2CC[C@H]1C[C@H]2[C@H](OC(=O)OCC)c1ccnc2ccc(OC)cc12 | 71.8 |
| CCC(Cc1c(I)cc(I)c(N)c1I)C(=O)O (stereo not drawn) | 88.3 |
| COc1ccccc1OCCNCC(O)COc1cccc2[nH]c3ccccc3c12 (stereo not drawn) | 38.7 |

Set 3
Target: Ras GTPase-activating protein-binding protein 1, C-terminal RGG region (G3BP1, Homo sapiens, UniProt Q13283)
Sequence of UniProt Q13283 (whole entry, looked up): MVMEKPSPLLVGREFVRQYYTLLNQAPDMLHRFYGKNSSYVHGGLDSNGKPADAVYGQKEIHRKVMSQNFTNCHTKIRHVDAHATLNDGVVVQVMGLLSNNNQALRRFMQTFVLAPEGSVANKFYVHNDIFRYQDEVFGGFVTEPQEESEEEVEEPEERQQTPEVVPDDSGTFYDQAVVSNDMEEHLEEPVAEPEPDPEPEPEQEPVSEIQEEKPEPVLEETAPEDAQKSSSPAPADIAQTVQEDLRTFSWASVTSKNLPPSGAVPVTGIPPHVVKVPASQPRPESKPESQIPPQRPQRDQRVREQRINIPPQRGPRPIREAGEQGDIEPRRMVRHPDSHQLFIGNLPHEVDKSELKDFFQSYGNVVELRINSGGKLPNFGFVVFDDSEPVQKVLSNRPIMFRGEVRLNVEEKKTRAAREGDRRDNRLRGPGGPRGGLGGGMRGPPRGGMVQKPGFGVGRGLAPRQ
Technique: RNA Bind-n-Seq
Form: RNA
Sample: in vitro
Tested at: 1 µM
Setting: whole 134-nt RNA, ends assumed
Added: 150 mM KCl
Relative to: input library
Reading: higher = stronger binding
Shared flanks, not repeated: GGGAGUUCUACAGUCCGACGAUC … UGGAAUUCUCGGGUGUCAAGG
| Oligonucleotide | log2 enrichment |
| --- | --- |
| CUUCUUGCAUGCUCGGCUCCGGACAGCUACGCUUCGGCAUGACGCAGACGGGCAGGCCACCCUGUUGAACCUCCUGCUGCGGAAUUACCU | -0.815 |
| UGGGAGGUGGAUUUUGUUUAUUUUUUUACCUCAUUUCCAGGGGUGGGAAUUUUUUUUUAAUAUGUGUCAUGAAUAAAGUUGUUUUUGAAA | 3.45 |
| AAGUCCUGUGCUACACAUCGUAUGUACCGAAUCGGCCCCGGGGCCCCGGCCCCGGGGAAAGUAUUAUGUUACGCCGUUCGGAUCUGCACU | -2.83 |
| UGGCCCUGGUGGCAUGCGGGGAGGAAGAGGUGGCCUCAUGGAUCGGGGUGGUCCCGGUGGAAUGUUCAGAGGUGGCCGUGGUGGAGACAG | 2.08 |
| AAGUCCUGUGCUACACAUCGUAUGUACCGAAUCGGGGUUUUUGGGGAGGGGAGGGGAAAGUAUUAUGUUACGCCGUUCGGAUCUGCACUU | 2.58 |
| CACAGACAACACGCAGCCACACAGACACAGAGGGAAGGGGUUGGGAUGGGGACAGGGUGCACAGCAGGGCGGGGUAGGACCCCAGCCCCU | -0.457 |
| UUGCAUUUCGAACGCGUUCUAAGAUGCCCCUGAAAGAUGUUCCCCUGGGCCAAUUAGAGGCAGAGCUCCAAGCUCCAGACAUCACUCCAG | 0.0411 |
| AGUCCUGUGCUACACAUCGUAUGUACCGAAUCGGGGAAAAGGGAAAAGGGGAAAAGGGAAAGUAUUAUGUUACGCCGUUCGGAUCUGCAC | 0.392 |

Set 4
Target: Replicase polyprotein 1ab, polymerase (rep, Severe acute respiratory syndrome coronavirus 2, UniProt P0DTD1)
Effect on: enzyme activity
Action: inhibitor
Tested at: 20 µM
| SMILES | inhibition |
| --- | --- |
| OCCN1CCN(CC/C=C2/c3ccccc3Sc3ccc(C(F)(F)F)cc32)CC1 | -7.37% |
| Cc1ccc(S(=O)(=O)c2ccc([N+](=O)[O-])o2)cc1 | -3.46% |
| CCCCCCCC/C=C\CCCCCCCC(=O)NCCO | 1.77% |
| CCOc1ccccc1C(N)=O | -0.31% |
| N[C@@H](Cc1cc(I)c(Oc2cc(I)c(O)c(I)c2)c(I)c1)C(=O)O | 11.7% |
| O=C(c1cc2ccccc2o1)N1CCN(Cc2ccccc2)CC1 | 4.5% |
| Fc1ccccc1CNCc1ccc(-c2ccnc3[nH]ccc23)cc1 | 5.91% |
| O=C1C=CC(=O)C2=C1C1c3ccccc3C2c2ccccc21 | -5.44% |
| O=C1c2ccccc2S(=O)(=O)N1CCCCN1CCN(c2ncccn2)CC1 | -10.5% |
| COc1ccc(CC2NCCc3c2[nH]c2ccc(C)cc32)c(Cl)c1OC (stereo not drawn) | 0.5% |
| CC[C@@]1(O)C(=O)OCc2c1cc1n(c2=O)Cc2cc3ccccc3nc2-1 | -5.16% |
| CNc1nc(NCc2ccc(NS(C)(=O)=O)cc2Cl)cc(-c2ccccn2)n1 | 4.12% |
| CCCCCCCCc1ccc(CCC(N)(CO)CO)cc1 | 5.72% |
| FC(F)(F)c1cccc(-c2noc(-c3cc(-c4ccccc4)c(C(F)(F)F)s3)n2)c1 | 0.77% |
| CCCCCCCCCC(=O)OC1(c2ccc(Cl)cc2)CCN(CCCC(=O)c2ccc(F)cc2)CC1 | -6.13% |
| NC[C@H](CC(=O)O)c1ccc(Cl)cc1 | -3.22% |
| COc1ccccc1Oc1c(NS(=O)(=O)c2ccc(C(C)(C)C)cc2)nc(-c2ncccn2)nc1OCCO | 7% |
| OCCCNc1ccccc1 | 1.07% |
| CCOC(=O)CC(=O)N1CCSC1COc1ccccc1OC (stereo not drawn) | 0.38% |
| N[C@H](Cc1c[nH]cn1)C(=O)O | -1.12% |
| COc1ccc2c(O[C@@H]3C[C@H]4C(=O)N[C@]5(C(=O)NS(=O)(=O)C6CC6)C[C@H]5/C=C\CCCCN(C)C(=O)[C@@H]4C3)cc(-c3nc(C(C)C)cs3)nc2c1C | -5.06% |
| O=C(O[C@H]1C[N+]2(CCCOc3ccccc3)CCC1CC2)C(O)(c1cccs1)c1cccs1 | -1.4% |
| CCN(CC)c1ccc(C(=C2C=CC(=[N+](CC)CC)C=C2)c2ccccc2)cc1 | -2.67% |
| CCCc1cc(C(N)=S)ccn1 | 4.09% |
| Oc1ccc(C2CNCCc3c2cc(O)c(O)c3Cl)cc1 (stereo not drawn) | 0.13% |

Set 5
Target: Interferon regulatory factor 3, full length, phosphomimetic (IRF3, Homo sapiens, UniProt Q14653, residues 1-427, S386D/S396D/S398D/S402D/T404D/S405D)
Sequence of UniProt Q14653 (whole entry, unmodified, looked up): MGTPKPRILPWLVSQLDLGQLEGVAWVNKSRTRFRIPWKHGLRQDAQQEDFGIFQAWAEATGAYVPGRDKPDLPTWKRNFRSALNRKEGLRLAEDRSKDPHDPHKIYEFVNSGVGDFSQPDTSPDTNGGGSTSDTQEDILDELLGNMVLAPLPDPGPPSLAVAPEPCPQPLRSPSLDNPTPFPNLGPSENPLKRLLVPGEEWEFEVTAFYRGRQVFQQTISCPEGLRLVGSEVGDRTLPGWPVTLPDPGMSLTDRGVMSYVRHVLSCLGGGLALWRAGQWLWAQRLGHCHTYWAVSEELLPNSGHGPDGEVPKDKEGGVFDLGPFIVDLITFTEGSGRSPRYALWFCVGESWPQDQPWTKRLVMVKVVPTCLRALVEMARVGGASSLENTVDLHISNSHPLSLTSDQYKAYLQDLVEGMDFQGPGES
Technique: protein-binding microarray
Form: double-stranded DNA, one strand shown
Sample: in vitro
Tested at: 2540 nM top
Setting: 60-bp whole probe
Added: salmon DNA 0.4 mg/ml
Relative to: random background probes
Reading: higher = stronger binding
Shared flanks, not repeated: GCCTAGCAC … GTCTTGATTCGCTTGACGCTGCTG
| Oligonucleotide | fitted relative affinity [z-score] |
| --- | --- |
| AGAGAGAGAGAGAGAGAGAGGTGCTAG | -0.865 |
| TAGAGTCTCAACCCCCAATAAGTGCTA | -0.479 |
| AACCACATAGGAAGAACAACGTGCTAG | 0.221 |
| TTAGAACTGTGACTGGATTAGTGCTAG | -0.38 |
| GACGGTTTCCTACTGCTGTCGTGCTAG | 5.57 |
| CCCCTACTGTATTTGGCCAGGTGCTAG | 0.976 |
| GACGATTTCGGGTTTCGACACGTGCTA | 2.73 |
| GACGGACGGCTTATCCTGACGTGCTAG | -0.605 |
